# Assay results pooled from the literature.
# A part holds a random share of what one study measured.

# Study 1 — method: universal PBM; molecule type: double-stranded DNA, one strand shown; sample: in vitro; tested at: not given; reading: higher = stronger binding
# Target: Sal-like protein 4, full length isoform B (SALL4, Homo sapiens, UniProt Q9UJQ4-2, residues 1-616)
# Setting: 8-mer, flanks averaged, mean of replicates
Oligonucleotide,E-score
CGCTGGAA,-0.175
GCCATTGA,0.111
ACTAGACG,0.159
CGCGAGCA,-0.199
GTCAGCTA,-0.133
AAAAGCAG,-0.0522
AACTCCGC,-0.188
AGAACACT,-0.0505
ATGCTGGC,-0.0392
GATTAGCC,-0.098
GGAGTTGA,-0.00898
AATCCCCG,-0.0766
AGTTGTCG,-0.0405
CGCCGTAA,-0.151
ACGGTATC,-0.011
ACGATTTA,0.268
CAGTATTC,0.101
AAGGTAGA,0.172
GCTAGACC,-0.268
AGCATAGA,0.0799
ATGAGGGA,0.147
CCGTCAGA,-0.196
ATTCAGTA,0.264
ACCGACGC,-0.147
ACCTTCGG,-0.0442

# Study 2 — method: aptamer microarray, sandwich; molecule type: DNA with 2'F-ANA; sample: in vitro; tested at: 200 nM; added: Cy3 exosite-II aptamer, 400 nM; reading: higher = stronger binding; oligonucleotide: GGTTGGTGTGGTTGG
# Target: Prothrombin, mature alpha-thrombin (F2, Homo sapiens, UniProt P00734)
# Setting: whole 15-mer aptamer, many near background
Modification,mean fluorescence intensity
2'F-ANA at 1 3 7 10 11 13 15,74.9 a.u.
2'F-ANA at 1 2 5 7 8 12 14 15,62.2 a.u.
2'F-ANA at 1 2 4 6 7 8 9 10 14,52.3 a.u.
2'F-ANA at 1 2 4 10,51.8 a.u.
2'F-ANA at 1 4 6 12 15,256 a.u.
2'F-ANA at 1 3 4 11 12 13 14 15,77.4 a.u.
2'F-ANA at 3 4 7 9 11 13 14,260 a.u.
2'F-ANA at 1 2 3 4 6 8 9 10 13,52.3 a.u.
2'F-ANA at 1 3 4 5 6 7 8 10 11,47.8 a.u.
2'F-ANA at 2 3 4 9 12 13 14,286 a.u.
2'F-ANA at 1 3 10 14 15,58.4 a.u.
2'F-ANA at 2 3 5 6 8 9 10 11 12 13 15,58.5 a.u.
2'F-ANA at 2 3 4 7 9 11 12,774 a.u.
2'F-ANA at 2 3 5 6 7 8 11 15,85.9 a.u.
2'F-ANA at 1 4 5 8 9 10 11 14 15,56.5 a.u.
2'F-ANA at 2 3 6 9 10 11 14 15,219 a.u.
2'F-ANA at 2 9 12 13,529 a.u.
2'F-ANA at 1 4 6 7 9 10 11 12 13 14 15,93.3 a.u.
2'F-ANA at 1 3 4 5 7 8 11,96.4 a.u.
2'F-ANA at 1 7 8 9 10 15,65.8 a.u.
2'F-ANA at 2 3 4 5 7 8 9 10 11 12 13,116 a.u.
2'F-ANA at 2 3 6 7 10 12 13 14 15,275 a.u.

# Study 3 — method: RNA Bind-n-Seq; molecule type: RNA; sample: in vitro; tested at: 365 nM; baseline: no-protein control; reading: higher = stronger binding
# Target: RNA binding protein fox-1 homolog 2, RRM domain, GST-SBP tag (RBFOX2, Homo sapiens, UniProt O43251-10, residues 100-194)
# Setting: natural RNA segment, single round, ends assumed
# Shared flanks, not repeated: GGGAGUUCUACAGUCCGACGAUC … UGGAAUUCUCGGGUGCCAA
# Construct (chain): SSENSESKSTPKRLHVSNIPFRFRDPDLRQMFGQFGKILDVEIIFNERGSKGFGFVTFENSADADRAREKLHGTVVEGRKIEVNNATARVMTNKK
Oligonucleotide,RBNS enrichment (R)
CCUCCAGCCCCUGAGAACUCCAUCUUCCCCUAGUUCUGCCCAGGAGCCCCUGAGAACCCCAUCUUCCCCUGGUUCUCUUGCCCACUCCCCUGCUGGGGCUCCUUCCUGGC,0.826
ACUGUCUGUCUCUCUGGUUUUCUUUUGCUGCUUCUUCCCUUCUGGUUUCUGGUAGCAGGCCUCCAUUGAACUGUUGUAAAAUACAAGAAGUGUGGUCAGUAAGGAGAGUU,0.186
ACAGAAAAGUGCAAAGUUAUUCCCCAUCUUCCAAGGGUUGAAUUCUGGAGGAAGAAGACACAUUCCUAGUUCCCCGUGAACUUCCUUUGACUUAUUGUCCCCACUAAAAC,0.404
CCUGCCAACACUAAUGUUCCCCACACUAUCUUUGUACAUUUCAGAGGUUUGGUCUUCUGGGUGGUGUCCGUUUCCCCUCACUGUCAGGGAAAGCUGGAUCCCUCUGGCUG,0.335
UCCUUUGUAUCAUAGCAAAGGAAAUGUUUAAAAAAAUCAACUGUAAUAAAGUAAUUUUAGUACACAGUGUCUGUCCAGUUUUUUUAAGCAAUUUUAUUCCCAUGAAGAUA,0.557
GAAUAAUGAUGUACCAAUAAGUGGAGAUUCCUCCUUAUGAUGUAUGCUAGGUUAUGGAAGAUGUAAAAUAUUCAACUUUUUCCUCCUUUUUUUGGACUUUGUAUUUUACU,0.521
CAUCUGUCAGUCAGGUUGUAUGGGCUGGAGGCUGGCAGGUCUGCAUGGUAGGCUGAGUUUGCUGUCCAAUAGCUGUGUGACUUUGGGCAAGUCCCAGUCACCUUCCUGGC,1.13
UUCUCUCCUCUUAUCAUCUAACAUACCCUACUUGGAAAGAUCUAAGAUCUCAAUCUUAUCCUUUGCCGCCUGCUAUCACCAUAUGGUGUUGGAUUCAAGUUUAAUUAGCU,0.71

# Study 4 — method: protein binding microarray; molecule type: double-stranded DNA, one strand shown; sample: in vitro; tested at: not given; baseline: not given; reading: higher = stronger binding
# Target: Histone acetyltransferase KAT6A, both winged helices, GST fusion (KAT6A, Homo sapiens, UniProt Q92794, residues 1-181)
# Setting: 8-mer, flanks averaged, mean of 2 arrays, mostly near background
# Construct (chain): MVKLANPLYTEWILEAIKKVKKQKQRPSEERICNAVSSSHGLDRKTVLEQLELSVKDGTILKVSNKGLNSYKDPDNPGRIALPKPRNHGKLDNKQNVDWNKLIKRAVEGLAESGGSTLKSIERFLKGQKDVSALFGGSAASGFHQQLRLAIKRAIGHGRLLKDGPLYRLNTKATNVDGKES
Oligonucleotide,E-score
CGATGGTC,-0.0478
CACTCCTG,-0.17
AGGATGAT,-0.146
ACCCGCCC,0.194
AACAACTA,-0.154
CCGTCGAA,0.191
TGCGCGCA,0.354
GGCGTAAC,0.0926
ACGTAGAA,-0.0598
GGTATACA,-0.0445
AGACGCAT,0.118
CAGAGTTC,0.00178
ACCTCGAG,0.02
AGGTAGCC,-0.103
ACGGGGAA,0.205
AACGTTCG,0.0704
AGGGACTG,-0.146
ATGAGAAT,-0.0649
CCGAAAGG,0.0947
AACGGAAT,0.25
AAATCACC,0.0468
ACTCTAAC,-0.148

# Study 5 — method: protein-binding microarray; molecule type: double-stranded DNA, one strand shown; sample: in vitro; tested at: not given; reading: higher = stronger binding
# Target: Hepatocyte nuclear factor 3-beta, forkhead domain (FOXA2, Homo sapiens, UniProt Q9Y261, residues 142-269)
# Setting: k-mer, scored over probes, only values ≥0.25
# Residues (chain): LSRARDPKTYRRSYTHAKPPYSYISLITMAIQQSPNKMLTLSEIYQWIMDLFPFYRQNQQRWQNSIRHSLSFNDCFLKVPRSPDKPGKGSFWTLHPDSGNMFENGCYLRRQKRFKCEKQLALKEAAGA
Oligonucleotide,E-score
CGTTACAA,0.268
AGATTTAC,0.275
CTACTGTA,0.259
GTATGTTA,0.316
ATACTGGA,0.291
GCATCATA,0.29
AGAACAAT,0.261
CAGTATTC,0.266
ACATATTA,0.358
ATATTTAC,0.452
AAACATAG,0.266
GATATGTA,0.271
AAACAGAT,0.291
ACGTGTAT,0.256
ACATTACA,0.356

# Some of these lines once more (study 1):
Oligonucleotide,E-score
CAGTATTC,0.101
AAGGTAGA,0.172
GCTAGACC,-0.268
AGCATAGA,0.0799
ATGAGGGA,0.147
CCGTCAGA,-0.196
ATTCAGTA,0.264
ACCGACGC,-0.147
ACCTTCGG,-0.0442
